{"data": "Measured values from different studies", "note": "Every numbered part comes from another study and shows a few of its results, in no order. Several values in a cell are separate wells, animals, samples, runs or records.", "UniProt Q5XXA6, sequence (whole entry, unmodified, looked up)": "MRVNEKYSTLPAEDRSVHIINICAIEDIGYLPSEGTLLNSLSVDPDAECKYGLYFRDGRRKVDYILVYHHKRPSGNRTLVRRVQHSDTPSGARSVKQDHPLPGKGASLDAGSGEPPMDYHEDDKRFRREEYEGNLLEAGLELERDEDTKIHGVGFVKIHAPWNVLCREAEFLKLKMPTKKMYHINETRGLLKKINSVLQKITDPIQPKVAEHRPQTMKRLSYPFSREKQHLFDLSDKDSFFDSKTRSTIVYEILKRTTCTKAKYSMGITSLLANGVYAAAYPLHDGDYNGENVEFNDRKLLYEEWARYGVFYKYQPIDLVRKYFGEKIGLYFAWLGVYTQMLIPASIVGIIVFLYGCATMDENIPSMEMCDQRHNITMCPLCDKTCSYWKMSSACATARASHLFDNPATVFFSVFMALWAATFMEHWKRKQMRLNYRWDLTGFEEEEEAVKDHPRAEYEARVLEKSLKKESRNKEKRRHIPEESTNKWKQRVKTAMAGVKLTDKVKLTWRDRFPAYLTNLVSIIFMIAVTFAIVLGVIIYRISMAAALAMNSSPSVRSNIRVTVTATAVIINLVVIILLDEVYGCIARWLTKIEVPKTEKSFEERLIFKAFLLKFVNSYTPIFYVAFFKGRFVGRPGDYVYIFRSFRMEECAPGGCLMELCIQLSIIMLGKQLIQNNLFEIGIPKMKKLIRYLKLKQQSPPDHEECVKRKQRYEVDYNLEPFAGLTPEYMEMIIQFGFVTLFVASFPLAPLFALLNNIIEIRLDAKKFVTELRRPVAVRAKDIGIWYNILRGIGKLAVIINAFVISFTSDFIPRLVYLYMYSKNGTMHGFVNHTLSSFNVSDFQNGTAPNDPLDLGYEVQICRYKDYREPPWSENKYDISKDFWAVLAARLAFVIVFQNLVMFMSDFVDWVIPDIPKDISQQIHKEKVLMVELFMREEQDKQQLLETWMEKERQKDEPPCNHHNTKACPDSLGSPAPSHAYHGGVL"}
{"data": "Block 1", "species": "mouse", "sample": "microsomes or S9", "tested at": "2 µM", "time": "0.5 h"}
{"SMILES": "COc1cc(O)ccc1-c1nnc(C)n1-c1ccc(O)cc1", "remaining compound [%]": 62.8}
{"SMILES": "COc1ccc(OC)c(NC(=O)c2cc3sccc3n2Cc2ccccc2)c1", "remaining compound [%]": 0.136}
{"SMILES": "Cc1noc(C)c1CN1CCn2c1nc(-c1ccccc1)cc2=O", "remaining compound [%]": 23.7}
{"SMILES": "Cc1cc(=O)[nH]c(SCC(=O)c2cc(C)n(CC3CCCO3)c2C)c1C#N (stereo not drawn)", "remaining compound [%]": 8.34}
{"SMILES": "Cc1cc(C)c(S(=O)(=O)N2CCN(c3cc(C)nc(N4CCCC4)n3)CC2)c(C)c1", "remaining compound [%]": 0.092}
{"SMILES": "OCCCN(CCO)c1ccc2cccc(Br)c2n1", "remaining compound [%]": 1.87}
{"SMILES": "COc1cc(-c2csc(N)n2)cc(Br)c1O", "remaining compound [%]": 43.5}
{"SMILES": "O=C(CN(CCc1ccccc1)C(=O)CNS(=O)(=O)c1ccccc1)NCC1CCCO1 (stereo not drawn)", "remaining compound [%]": 8.92}
{"data": "Block 2", "organism": "Sarcocystis neurona", "effect on": "parasite activity", "tested at": "10 µM", "time": "96 h"}
{"Compound": "CC=CC(=O)N(CC)c1ccccc1C (mixture of isomers)", "activity class": "inactive"}
{"Compound": "OCCN1C[C@H](O)[C@@H](O)[C@H](O)[C@H]1CO", "activity class": "inactive"}
{"Compound": "Cc1nc2ccccn2c(=O)c1CCN1CCC(C(=O)c2ccc(F)cc2)CC1", "activity class": "inactive"}
{"Compound": "CN(C)CC[C@@H](c1ccc(Br)cc1)c1ccccn1", "activity class": "inactive"}
{"Compound": "CSc1ccc2c(c1)N(CCC1CCCCN1C)c1ccccc1S2 (stereo not drawn)", "activity class": "inactive"}
{"Compound": "Cc1ccc(Cl)c(Nc2ccccc2C(=O)O)c1Cl", "activity class": "inactive"}
{"Compound": "CN(C)CCCN1c2ccccc2Sc2ccc(Cl)cc21", "activity class": "inactive"}
{"Compound": "Cc1ncc([N+](=O)[O-])n1CC(C)O (stereo not drawn)", "activity class": "inactive"}
{"data": "Block 3", "SMILES": "CC(C)(C)c1cnc(CSc2cnc(NC(=O)C3CCN(CCCCCSc4cccc5c4CN(C4CCC(=O)NC4=O)C5=O)CC3)s2)o1 (stereo not drawn)"}
{"cell line": "HuT78", "test": "cell growth or viability, trypan blue", "conditions": "10 nM, 48 h", "viability": "98.4%"}
{"cell line": "HuT78", "test": "cell growth or viability, trypan blue", "conditions": "1 nM, 48 h", "viability": "99.2%"}
{"cell line": "HH", "test": "CCK-8", "conditions": "1 nM", "viability": "105% and 98.7%"}
{"cell line": "HuT78", "test": "trypan blue exclusion", "conditions": "1000 nM, 48 h", "how to read": "relative to: untreated control", "viability": "6.67% and 9.66%"}
{"cell line": "HuT78", "test": "trypan blue exclusion", "conditions": "50 nM, 48 h", "how to read": "relative to: untreated control", "viability": "53.3% and 55.6%"}
{"cell line": "HuT78", "test": "trypan blue exclusion", "conditions": "250 nM, 48 h", "how to read": "relative to: untreated control", "viability": "10.3% and 13.4%"}
{"cell line": "HuT78", "test": "cell growth or viability, trypan blue", "conditions": "1 µM, 48 h", "viability": "7.61%"}
{"data": "Block 4", "Structure (SMILES)": "C=CCc1ccc(O)c(-c2ccc(O)c(CC=C)c2)c1", "effect on": "chloride current", "method": "whole-cell voltage clamp"}
{"target": "Anoctamin-1 (ANO1, Homo sapiens, UniProt Q5XXA6, del476-501/R561A)", "conditions": "membrane voltage 20 mV", "IC50 [µM]": 4.99}
{"target": "Anoctamin-1 (ANO1, Homo sapiens, UniProt Q5XXA6, D383A/del476-501)", "conditions": "membrane voltage -20 mV", "IC50 [µM]": 7.27}
{"target": "Anoctamin-1 (ANO1, Homo sapiens, UniProt Q5XXA6, del476-501)", "conditions": "membrane voltage 20 mV, together with: 300 nM Ca2+", "IC50 [µM]": 3.14}
{"target": "Anoctamin-1 (ANO1, Homo sapiens, UniProt Q5XXA6, del476-501/E650A)", "conditions": "membrane voltage 40 mV", "IC50 [µM]": 3.31}
{"target": "Anoctamin-1 (ANO1, Homo sapiens, UniProt Q5XXA6, del476-501/F807A)", "conditions": "membrane voltage 40 mV", "IC50 [µM]": 19.6}
{"target": "Anoctamin-1 (ANO1, Homo sapiens, UniProt Q5XXA6, del476-501/F623A)", "conditions": "membrane voltage 100 mV", "IC50 [µM]": 8.81}
{"data": "Block 5", "target": "Alpha-1A adrenergic receptor (ADRA1A, Homo sapiens, UniProt P35348)", "effect on": "ligand displacement", "tested at": "10 µM", "Target sequence (P35348 1-466)": "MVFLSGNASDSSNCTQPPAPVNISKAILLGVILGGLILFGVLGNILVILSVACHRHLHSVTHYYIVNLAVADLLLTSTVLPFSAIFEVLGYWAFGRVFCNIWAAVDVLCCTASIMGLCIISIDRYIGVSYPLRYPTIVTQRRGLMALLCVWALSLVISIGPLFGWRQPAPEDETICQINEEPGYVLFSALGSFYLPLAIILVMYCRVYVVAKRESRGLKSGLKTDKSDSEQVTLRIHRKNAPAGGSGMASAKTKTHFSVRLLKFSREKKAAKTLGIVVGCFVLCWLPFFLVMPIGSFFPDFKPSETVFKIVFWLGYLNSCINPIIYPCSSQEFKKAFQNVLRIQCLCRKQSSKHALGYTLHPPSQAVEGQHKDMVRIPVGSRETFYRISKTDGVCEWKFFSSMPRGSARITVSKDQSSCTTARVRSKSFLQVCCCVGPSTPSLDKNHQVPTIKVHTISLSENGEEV"}
{"SMILES": "CC1=C(C#N)C(c2ccc3[nH]nc(C)c3c2)C(C#N)=C(C)N1", "inhibition": "15.6%"}
{"SMILES": "Nc1nc(NCc2ccccc2)nc(-c2cccc(CO)c2)n1", "inhibition": "5.91%"}
{"SMILES": "O=C1NC(c2ccccn2)Sc2ccccc21 (stereo not drawn)", "inhibition": "-9.97%"}
{"SMILES": "COc1cc(N[C@@H]2CCCC[C@]2(O)C(F)(F)F)ccc1F", "inhibition": "2.69%"}
{"SMILES": "CCOc1ccc(S(=O)(=O)Nc2ccc(Cl)cc2C#Cc2cnc(C(=O)O)cc2OC)c2ncccc12", "inhibition": "13.3%"}
{"SMILES": "CC(=O)N1CCC(c2ccc(C(=O)NC3=NCCN3)cc2C(F)(F)F)CC1", "inhibition": "-5.1%"}
{"SMILES": "CN1CCN(c2cnc3c(C4CCN(C(=O)c5ccc(OC(F)(F)F)cc5N)CC4)ncnc3c2)CC1", "inhibition": "1.11%"}
{"SMILES": "c1ccc(N2CCN(Cc3nc4ccccc4[nH]3)CC2)nc1", "inhibition": "6.04%"}
{"SMILES": "CN1CCN(c2ccnc(NCCc3ccccc3)n2)CC1", "inhibition": "19.2%"}
{"SMILES": "CO[C@H]1CC[C@H](CNc2ccc(S(=O)(=O)NC(=O)c3ccc(N4CCN(CC5=C(c6ccc(Cl)cc6)CC(C)(C)CC5)CC4)cc3Oc3cnc4[nH]ccc4c3)cc2[N+](=O)[O-])CC1", "inhibition": "-27.7%"}
{"SMILES": "Cc1noc([C@H]2C[C@@H](c3ccc(C(F)(F)F)cc3)CN(C(=O)N3CCS(=O)(=O)C3)C2)n1", "inhibition": "-4.12%"}
{"SMILES": "O=C(NCCCC1CCCCC1)c1ccc(CNC(=O)c2cnn(-c3ccccc3)c2C(F)(F)F)cc1", "inhibition": "17.9%"}
{"SMILES": "CC[C@H](CC(=O)O)n1c(=O)c2ncccc2n(Cc2cn(C)c3cc(C)cc(C)c23)c1=O", "inhibition": "0.23%"}
{"SMILES": "CNC(=N)NCCC[C@H](NC(=O)[C@H](CC(C)C)NC(=O)NNC(=O)[C@H](Cc1ccccc1)NC(=O)[C@H](CO)NC(=O)[C@H](CC(N)=O)NC(=O)[C@@H](Cc1ccncc1)NC(=O)[C@H](N)Cc1ccc(O)cc1)C(=O)N[C@@H](Cc1ccccc1)C(N)=O", "inhibition": "-9.06%"}
{"SMILES": "O=c1nc(-c2ccccn2)sc2ccccc12", "inhibition": "-12.5%"}
{"SMILES": "CCc1ccccc1C(=O)Nc1n[nH]c2c(C)c(F)c(C3C(C#N)=C(C)N(C)C(C)=C3C#N)cc12", "inhibition": "6.85%"}
{"SMILES": "Nc1nc(NCc2ccccc2)nc(-c2ccccc2CO)n1", "inhibition": "25.5%"}
{"SMILES": "C[C@H](c1ccnc(Nc2nc3ccc(-c4cc(N(C)C)ncn4)cc3[nH]2)c1)N1CCN(C(=O)CC(F)(F)F)CC1", "inhibition": "11.9%"}
{"SMILES": "C[C@@H](c1cccc(C#N)c1)n1cc(Cl)cc(C(N)=O)c1=N", "inhibition": "54.8%"}
{"SMILES": "CNC(=O)Nc1ccc2c(c1)CC[C@]21OC(=O)N(CC(=O)N(Cc2ccc(F)cc2)[C@@H](C)C(F)(F)F)C1=O", "inhibition": "-11.3%"}
{"SMILES": "O=C(Nc1ccc(Oc2ccc(F)cc2)cc1)N1CCc2ncccc2[C@H]1c1ccc(F)cc1", "inhibition": "16.2%"}
{"SMILES": "CN(C)CC#Cc1ccc(OCCCc2sc(N3CCc4cccc(C(=O)Nc5nc6ccccc6s5)c4C3)nc2C(=O)O)c(F)c1", "inhibition": "-19.1%"}
{"SMILES": "CC(=O)Nc1ncc(CN2CCC[C@H](Cc3cc(C)nc(C)c3)C2)s1", "inhibition": "2.36%"}
{"SMILES": "c1ccc(C2CCN(c3cnc4c(N5CCOCC5)nccn34)CC2)cc1", "inhibition": "22.5%"}
{"SMILES": "Cn1nc(C(=O)NCc2ccc(C(=O)O)cc2)cc1-c1ccc2[nH]ccc2c1", "inhibition": "-13.8%"}
{"note": "Excerpt of the above (block 5):"}
{"SMILES": "c1ccc(N2CCN(Cc3nc4ccccc4[nH]3)CC2)nc1", "inhibition": "6.04%"}
{"SMILES": "c1ccc(C2CCN(c3cnc4c(N5CCOCC5)nccn34)CC2)cc1", "inhibition": "22.5%"}
{"SMILES": "C[C@@H](c1cccc(C#N)c1)n1cc(Cl)cc(C(N)=O)c1=N", "inhibition": "54.8%"}
{"SMILES": "Nc1nc(NCc2ccccc2)nc(-c2cccc(CO)c2)n1", "inhibition": "5.91%"}
